Results gathered from unrelated publications.
Every numbered part comes from another study and shows a few of its results, in no order.

Sample 1
Target: Prothrombin, mature alpha-thrombin (F2, Homo sapiens, UniProt P00734)
Method: aptamer microarray, sandwich
Form: DNA with 2'F-ANA
Sample: in vitro
Concentration: 200 nM
Setting: whole 15-mer aptamer, many near background
With: Cy3 exosite-II aptamer, 400 nM
Direction: higher = stronger binding
`GGTTGGTGTGGTTGG (2'F-ANA at 2 9 10 11 12 14 15)`: “mean fluorescence intensity” 86.2 a.u.
Under “mean fluorescence intensity”, `GGTTGGTGTGGTTGG (2'F-ANA at 1 3 6 7 8 9 10 12 13 14 15)` is recorded as 79.2 a.u.
`GGTTGGTGTGGTTGG (2'F-ANA at 4 8 9 11 12 14 15)`: “mean fluorescence intensity” 95.5 a.u.
For `GGTTGGTGTGGTTGG (2'F-ANA at 1 2 3 6 7 10 11 12 15)`, “mean fluorescence intensity” read 119 a.u.

Sample 2
Target: Interferon regulatory factor 7, full length, phosphomimetic (IRF7, Homo sapiens, UniProt Q92985, residues 1-503, S471D/S472D/S475D/S476D/S477D/S483D/S484D/S487D)
Method: protein-binding microarray
Form: double-stranded DNA, one strand shown
Sample: in vitro
Concentration: 2200 nM top
Setting: 60-bp whole probe
With: salmon DNA 0.4 mg/ml
Reference: random background probes
Direction: higher = stronger binding
Construct (chain): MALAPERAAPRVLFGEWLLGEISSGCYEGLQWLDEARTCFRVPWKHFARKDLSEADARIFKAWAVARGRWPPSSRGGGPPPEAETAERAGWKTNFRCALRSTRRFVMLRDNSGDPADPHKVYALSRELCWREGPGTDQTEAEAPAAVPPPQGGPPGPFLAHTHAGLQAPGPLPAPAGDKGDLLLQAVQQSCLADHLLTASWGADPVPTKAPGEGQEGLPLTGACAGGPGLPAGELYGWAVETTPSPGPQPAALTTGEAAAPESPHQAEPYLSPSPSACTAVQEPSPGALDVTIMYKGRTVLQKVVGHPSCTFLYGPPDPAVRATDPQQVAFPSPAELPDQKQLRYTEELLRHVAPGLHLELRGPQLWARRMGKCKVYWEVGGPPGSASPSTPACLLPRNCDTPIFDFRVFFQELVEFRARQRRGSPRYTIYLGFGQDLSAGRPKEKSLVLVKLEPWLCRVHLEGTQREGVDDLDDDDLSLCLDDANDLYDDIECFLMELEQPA
`GCCTAGCACGACGAACTGGGGATTGGAGACGTGCTAGTCTTGATTCGCTTGACGCTGCTG`: “fitted relative affinity” 0.00885 z-score.
`GCCTAGCACTGGCTTTCCTTTATGTCCTGGTGCTAGGTCTTGATTCGCTTGACGCTGCTG` — result for “fitted relative affinity”: 1.67 z-score.
`GCCTAGCACGTCGGTCTCCTTATCCTGACGTGCTAGGTCTTGATTCGCTTGACGCTGCTG`: “fitted relative affinity” 1.88 z-score.
For `GCCTAGCACTCAGTTTTAAATAGGGCACTGTGCTAGGTCTTGATTCGCTTGACGCTGCTG`, “fitted relative affinity” read 0.234 z-score.

Sample 3
Target: Histone acetyltransferase KAT6A, both winged helices, GST fusion (KAT6A, Homo sapiens, UniProt Q92794, residues 1-181)
Method: protein binding microarray
Form: double-stranded DNA, one strand shown
Sample: in vitro
Concentration: not given
Setting: 8-mer, flanks averaged, mean of 2 arrays, mostly near background
Reference: not given
Direction: higher = stronger binding
Residues (chain): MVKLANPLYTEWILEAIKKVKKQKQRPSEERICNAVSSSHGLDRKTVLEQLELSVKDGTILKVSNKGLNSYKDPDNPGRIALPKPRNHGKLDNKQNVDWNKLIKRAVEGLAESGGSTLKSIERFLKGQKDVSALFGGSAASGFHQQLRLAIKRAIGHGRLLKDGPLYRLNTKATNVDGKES
`CATGCACA` has an E-score of -0.104.
`ATTGAAGG` has an E-score of -0.095.
With `CGCAGGCA` the E-score was 0.143.
The E-score of `ATCTTGTG` is reported as -0.176.
`CGCTTATA` has an E-score of 0.18.

Further values, each from its own experiment
`PhoQ, residues 284 288 289 292 302 303 SSCCRF` has a fold induction of 14.6 (PhoP, residues 12 14 15 18 19 HLGGL (Escherichia coli, UniProt P23836); Sort-seq, item: YFP reporter; E. coli; PhoQ-PhoP variant library, with: 10 µM Mg2+; reference: high Mg2+ state, higher = stronger signaling).
